Results of several laboratories.
Protocols differ between the studies behind these lines.

COc1nnc2ccc(N3CCC(c4ccc(OCCN5CCN(C)C(=O)[C@H]5C)cc4)CC3)nn12  patients with adverse event (measured: thrombocytopenia; patients with solid tumours or lymphoma; oral, dose not given, all grades, treatment-related): 29.4%
CN1CC[C@@H](c2c(O)cc(O)c3c(=O)cc(-c4ccc(C(F)(F)F)cc4Cl)oc23)[C@@H]1CO  patients with adverse event (measured: Hypotension; B-cell malignancies or AML; oral, 50 mg, continuous dosing): 12.5%
CO[C@H]1C[C@@H]2CC[C@@H](C)[C@@](O)(O2)C(=O)C(=O)N2CCCC[C@H]2C(=O)O[C@H]([C@H](C)C[C@@H]2CC[C@@H](OC(=O)NCCOCCOCCOCCOCCOCCOCCOCCOCCC(=O)N3CCc4cc(Cn5nc(-c6ccc7oc(N)nc7c6)c6c(N)ncnc65)ccc4C3)[C@H](OC)C2)C[C@@H](O)[C@H](C)/C=C(\C)[C@@H](O)[C@@H](OC)C(=O)[C@H](C)C[C@H](C)/C=C/C=C/C=C/1C  patients with AE (measured: grade ≥3 mucositis TEAE (bundled term); patients with advanced solid tumours; intravenous, dose not given, all patients, weekly): 11%
C=CCNc1c(O)cc2c(O)c1C[C@@H](C)C[C@H](OC)[C@H](O)[C@@H](C)/C=C(\C)[C@H](OC(N)=O)[C@@H](OC)/C=C\C=C(/C)C(=O)N2  patients with headache TEAE (unresectable or metastatic STS, GIST, other; intravenous, 90 mg/m^2): 0%
COc1cc2c(Oc3ccc4[nH]c(C)cc4c3F)ccnc2cc1OCC1(N)CC1  patients with grade 3 AST elevation (paediatric refractory sarcoma patients; 8 mg/kg): 0%
CCNCCCNC/C=C\CNCCCNCC  patients with treatment-related TEAE (advanced refractory solid tumour patients; intravenous, dose not given, anorexia): 21.7%
O=C1Nc2cc3[nH]nc(-c4ccncc4)c3cc2CN1Cc1ccccc1  patients with ≥1 TEAE (CTCAE v4.03; advanced solid tumour patients; intravenous, 11.3 mg/kg): 100%
C[C@@H]1OC(=O)NN=C1c1ccc(-c2ccc(F)cc2)c(C(F)(F)F)c1  patients with non-cardiac chest pain (patients, phase I trial; oral, 5 mg once daily, worst grade 1): 0%
C=CC(=O)N1CC[C@H](n2nc(C#Cc3cc(OC)cc(OC)c3)c3c(N)ncnc32)C1  patients with ADR (measured: blood creatinine increased; hyperphosphataemia patients; oral, once daily, any grade, phosphate binder users): 12.5%
CC(=O)c1c(C)c2cnc(Nc3ccc(C4CCN(CCS(C)(=O)=O)CC4)cn3)nc2n(C2CCCC2)c1=O  patients with ALT increased (HR+/HER2- advanced breast cancer patients; oral, dose not given, grade 3/4,, total): 1.2%
Nc1nc2cc(-c3ccc4ncc(C(=O)N5CCOCC5)n4c3)ccc2o1  patients with adverse events (measured: Vomiting, any cause, grade ≥3; patients with advanced solid tumours; dose not given): 4%
